Assay results collected from several papers.
Each numbered part is a random draw from the data of one study; scales do not carry over between parts.

Sample 1 — technique: protein-binding microarray; molecule type: double-stranded DNA, one strand shown; sample: in vitro; tested at: 2540 nM top; notes: 60-bp whole probe; together with: salmon DNA 0.4 mg/ml; baseline: random background probes; direction: higher = stronger binding
Target: Interferon regulatory factor 3, full length, phosphomimetic (IRF3, Homo sapiens, UniProt Q14653, residues 1-427, S386D/S396D/S398D/S402D/T404D/S405D)
Chain of UniProt Q14653 (whole entry, unmodified, looked up): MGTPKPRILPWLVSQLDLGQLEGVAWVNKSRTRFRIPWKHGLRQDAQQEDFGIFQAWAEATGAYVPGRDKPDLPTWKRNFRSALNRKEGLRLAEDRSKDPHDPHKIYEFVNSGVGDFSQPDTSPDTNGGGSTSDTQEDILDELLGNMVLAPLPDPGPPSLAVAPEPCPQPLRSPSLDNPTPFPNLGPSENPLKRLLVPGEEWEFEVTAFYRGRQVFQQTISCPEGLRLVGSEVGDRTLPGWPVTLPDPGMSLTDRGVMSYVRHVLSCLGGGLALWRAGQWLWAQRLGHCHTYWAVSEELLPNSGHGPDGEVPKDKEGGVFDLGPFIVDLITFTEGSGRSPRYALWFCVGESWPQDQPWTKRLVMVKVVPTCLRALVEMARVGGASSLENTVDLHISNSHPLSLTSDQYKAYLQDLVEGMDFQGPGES
Constant ends, left off below: GCCTAGCAC … GTGCTAGGTCTTGATTCGCTTGACGCTGCTG
Sequence | fitted relative affinity
GACGAACAGAGTATCGAGAC | -0.0705 z-score
TTAGGTATCCCACTGCTTTA | 1.95 z-score
TATTTTTTTTATTTATAAAT | 1.36 z-score
TTAGAACTGAGTCTCGATTC | -0.325 z-score
TTAGGACTGCTTTTCCTTCA | 0.393 z-score
TCAATCCTATATCTGAAACT | 0.763 z-score
TTAGATATCAGTATCCATTA | 2.56 z-score
TTCATTTACATTTCCAATAC | 2.29 z-score
AACATACTCGTTTACATTTT | 1.4 z-score
GACGGACTTCTTATCCTGAC | 0.167 z-score
TTTGGACTGGGTTTCGGTTA | 2.92 z-score
GACGAAATCAGTATCGAGAC | 0.998 z-score
GACGCTCTCAGTCTCGAGAC | 0.431 z-score
TCAACTGTGTGTTTGAGACT | -0.549 z-score
GACGGTTCCCTCTTCCTGAC | 3.55 z-score
GACGGTAGCCTTTTCCTGAC | 2.42 z-score
CACGGTCTCCTTATCCTGAC | 2.42 z-score
GAGGGTTCCCTTTTCCTGAC | 5.85 z-score
GATGATATCAGTCTCGAGAC | 0.946 z-score
TTAGGACTGGGAATGGGTTA | -0.601 z-score

Sample 2 — technique: RNA Bind-n-Seq; molecule type: RNA; sample: in vitro; tested at: 365 nM; baseline: no-protein control; direction: higher = stronger binding
Target: RNA binding protein fox-1 homolog 2, RRM domain, GST-SBP tag (RBFOX2, Homo sapiens, UniProt O43251-10, residues 100-194)
Notes: natural RNA segment, single round, ends assumed
Residues (chain): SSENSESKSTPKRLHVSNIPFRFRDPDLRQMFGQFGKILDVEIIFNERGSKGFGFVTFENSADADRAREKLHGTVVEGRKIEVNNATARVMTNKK
Sequence | RBNS enrichment (R)
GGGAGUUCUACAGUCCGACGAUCUGUGCCCCUGGUGCCAUCUGGCCUGGCUGGAGCCAGGAACAAGAGGUCACCCCACCCUAGAAUCCGCAUGGUUUCCCUGUGAUUGCACUCCACUGCCACCGUGGUGCCUGUGGAAUUCUCGGGUGCCAA | 1.04
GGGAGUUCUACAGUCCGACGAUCCUGGCCACUGUCCCUGUCCUUCUACAGAACCUGAGGGCAAAGAUGGUGGCUGUGUCUCUCCCCGGUAAUGUCACUGUUUUUAUUCCUUCCAUCUAGCAGCUGGCCUAAUCUGGAAUUCUCGGGUGCCAA | 0.511
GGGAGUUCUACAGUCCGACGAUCUGUUAUAUUUUUUAUAAAAAUGUUUAUUUUUAAUGAUAUGAGAAAAAUUUUGUUAGGCCACAAAAACACUGCACUGUGAACAUUUUAGAAAAGGUAUGUCAGACUGGGAUUGGAAUUCUCGGGUGCCAA | 3.34
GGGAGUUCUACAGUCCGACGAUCUUUGAACCCAGCUGCUCUGUACUGCACUUAAAUGAUGUAAUAUUCCAGGAUGCUGCUGCAGGUGGCGUAUCAUCGUACACACUCAGUGACAUUUCUAUCACAAUCAUUUUUGGAAUUCUCGGGUGCCAA | 0.333
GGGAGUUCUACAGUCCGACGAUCUUAUUUUUCUCACUCGAAGAAACUAUAUAGGGUUGUUUUUCCUUUAGCUUGUGCUCAAGUCCUCUUGCUGUGUUUUCAGAAGCACUCACAUGUUCUUUCUUUUCCUGAGUUGGAAUUCUCGGGUGCCAA | 0.378
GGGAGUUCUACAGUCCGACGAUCGGACUGGGGGCGGGGCCUGGGCGGGGCCGCAGCCACACCGCUGGCUCCGCAUGGUUCAUUUUCUGAUGCCCACCGAGGAGCCCCAGCCCCGUCCCAGAGGCCGCUGCCCCUGGAAUUCUCGGGUGCCAA | 0.257
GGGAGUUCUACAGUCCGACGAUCAUAUUUCCACCUAUGGCAGGGGUACAGAGAACAUUAAAAGGACCCAUUCUGUAAAUCCUGAUGAUCGAUUUUGUCUAAGUAGCCCCACUGAGGCGUUGAGAAUGGGGCAUUGGAAUUCUCGGGUGCCAA | 0.903
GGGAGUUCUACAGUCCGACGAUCCAGACUGAGAGGCCAGUUGAUCUGCUCUGUUUUAUACCAGUAGCAAUAAAGAUUAUUUUUUGAUACAUCUGUGAGUCCUGUCUGGCAAGAACAUGUCAGAGAACCAGCAGUGGAAUUCUCGGGUGCCAA | 0.349
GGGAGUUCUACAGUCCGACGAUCAAUAAUAGAAUGAGCACCCAUUCCAAAGCUUUAUUACCAGUGGCGUUGUUGCAUGUUUGAAAUGAGGUCUGUUUAAAGUGGCAAUCUCAGAUGCAGUUUGGAGAGUCAGAUGGAAUUCUCGGGUGCCAA | 16.2
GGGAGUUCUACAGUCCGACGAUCAUUUAUAAGUGCUGCUUACAUCACUGAACAACAACAAAAAAAUAAUAAUGGAGUAGCUGUUGCCCUUCUCCGGUUGUGUGUACAGUAUGUGUGGAAUAAAAAAGGGAAACUGGAAUUCUCGGGUGCCAA | 0.695
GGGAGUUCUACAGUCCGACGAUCUUAAUUUGCACGAAAACAAAAAUUCCAUAUCAAUGUGCCUUGCCCUGGAUAGCGAUUAUUUGUGGAAUUGUUGCACAUGCUCCUCUAUUGAAAGGGGUUUUUCCCUAGUCUGGAAUUCUCGGGUGCCAA | 6.99
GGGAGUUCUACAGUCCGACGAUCAUAUUUUGGGAAUAGGACCCGAGCCUAAACACAAAAUUCAUUGAUGUGUCAGUUACACCUUAUCCACAUAGCCUGAGGGUAAUUUUAUACGAUAUUUUAAAUAGUUGUGUUGGAAUUCUCGGGUGCCAA | 0.534

Sample 3 — technique: protein binding microarray; molecule type: double-stranded DNA, one strand shown; sample: in vitro; tested at: not given; baseline: not given; direction: higher = stronger binding
Target: Histone acetyltransferase KAT6A, winged helix 2, GST fusion (KAT6A, Homo sapiens, UniProt Q92794, residues 85-181)
Notes: 8-mer, flanks averaged, mean of 2 arrays, mostly near background
Construct (chain): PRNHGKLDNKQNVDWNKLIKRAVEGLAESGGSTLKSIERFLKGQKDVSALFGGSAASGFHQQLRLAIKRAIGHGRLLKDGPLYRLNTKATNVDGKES
Sequence | E-score
GTGGAGTA | -0.0622
ACCCGACC | 0.0759
AACTCCTG | -0.0571
GGGCCAAA | 0.0256
ATCCGGCC | 0.156
AGCCCTCC | -0.00335
ACATTTCG | -0.187
CTGCAAAC | 0.0597
AAGGTGCT | -0.133
ACCGCTGA | -0.0927
AGCAGTCG | -0.000725
GCTTTCCA | 0.131
AGACCGAC | 0.0354
ACACGGGG | 0.12
AACATACA | -0.0897
CCTGCAGC | 0.0437
CCGATTCA | -0.0173
ATTGCAGC | -0.117
AGTGACGA | 0.0866
AGTGGTTG | 0.0864
GGAAACCA | -0.114
CAGCACGA | -0.0125
CTGCGAGA | 0.0415
TATAAAGA | 0.117
ACCATGCT | 0.107

Sample 4 — technique: universal PBM; molecule type: double-stranded DNA, one strand shown; sample: in vitro; tested at: not given; direction: higher = stronger binding
Target: Sal-like protein 4, full length isoform B (SALL4, Homo sapiens, UniProt Q9UJQ4-2, residues 1-616)
Notes: 8-mer, flanks averaged, mean of replicates
Sequence | E-score
GTCGTGCA | -0.127
ACCGCAAT | -0.113
AGTCTAAG | 0.068
AGGGTGCA | -0.149
CCTCCAAA | -0.102
AATGGGGC | -0.272
ATTGGTGA | 0.198
ACTATGTA | 0.199
CAACCACA | 0.101
CATTTCCC | -0.0467
CCTAATAC | 0.174
GAATATGC | 0.237
CTTTGAAA | 0.271
CTACGTGA | -0.196
AAGTAGCA | 0.123
ACATCAGA | 0.14

A few entries again (sample 4):
Sequence | E-score
CATTTCCC | -0.0467
CTTTGAAA | 0.271
ACCGCAAT | -0.113
CCTCCAAA | -0.102
CAACCACA | 0.101
ACTATGTA | 0.199
CCTAATAC | 0.174
ATTGGTGA | 0.198
GTCGTGCA | -0.127
AGGGTGCA | -0.149
AGTCTAAG | 0.068
AATGGGGC | -0.272
